Published values gathered from unrelated publications.
Numbered parts are unrelated; each lists some results of a single study. Substitutions count along the parent as printed.

Sample 1
Target: Histone acetyltransferase KAT6A, winged helix 2, GST fusion (KAT6A, Homo sapiens, UniProt Q92794, residues 85-181)
Technique: protein binding microarray
Molecule type: double-stranded DNA, one strand shown
Medium: in vitro
Concentration: not given
Setting: 8-mer, flanks averaged, mean of 2 arrays, mostly near background
Baseline: not given
Reading: higher = stronger binding
Construct (chain): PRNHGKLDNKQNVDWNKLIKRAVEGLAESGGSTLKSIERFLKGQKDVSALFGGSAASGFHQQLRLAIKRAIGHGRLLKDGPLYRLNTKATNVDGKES
Oligonucleotide | E-score
CCCCCGAA | -0.0487
CAAATCGC | -0.0255
GCGCCCCA | 0.21
CCGAGGTA | -0.0538
ACAGAGTA | 0.113
AAGCCCGC | 0.134
AGATTCAC | -0.014
CGTGCCTC | 0.0827
TCACTGGA | 0.0511
GAGTTTTA | 0.108
CTGCGCGC | 0.202
GAGCATTA | -0.0134
ATTGCCCA | 0.038
GAGTCATC | -0.12
AGGAAAGC | -0.0566
ACGAGACT | -0.13
CGTGAACG | -0.0485
CCAGGGTC | 0.0261
CTTTCTCA | -0.0314
TCCAAGAA | 0.139

Sample 2
Target: ABI1, truncated, D143A, DHFR fusion (Arabidopsis thaliana)
Technique: DHFR PCA, deep sequencing
Medium: yeast
Setting: methotrexate growth selection, single substitutions
Added: (+)-ABA 2500 µM
Baseline: wild-type fitted maximum
Reading: higher = stronger binding
Parent: PYL1, truncated, DHFR fusion (Arabidopsis thaliana); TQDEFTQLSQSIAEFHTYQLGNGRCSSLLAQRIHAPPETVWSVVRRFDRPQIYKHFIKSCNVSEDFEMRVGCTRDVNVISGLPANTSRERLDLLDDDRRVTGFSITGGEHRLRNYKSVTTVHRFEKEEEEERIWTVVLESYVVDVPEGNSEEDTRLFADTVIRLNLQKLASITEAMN
Change | relative binding score [%]
I12T | 90.1
E147N | 91.5
D159M | 71.6
T86G | 94.6
I172K | 91
T17W | 77.9
P146I | 57.6
V121P | -11.5
L138C | 95.5
I172P | 14.9

Sample 3
Cell line: yeast with cyclin F-Cln2 chimera
Read-out: cell growth
Mode: binder
Technique: competitive growth deep sequencing
Molecule type: peptide
Concentration: concentration not given
Setting: peptide tiling library
Reading: direction not given
Molecule | growth enrichment score
GQLVIPLDELTLDTSF | 0.833
KRCATPVIIDEILPSK | -0.0794
ESSQLTVQAEFDMSAI | 0.0226
ALTMEALEDPSPELME | 0.667
RRVLCFDS | 2.8
PARRRLRLSVDEVSSP | 4.24
LRRQLSFSED | 2.08
VLLKRLQDVVSERANH | 0.301
PAKRRLELGE | 3.46

Sample 4
Target: Homeobox protein Hox-B13, full length (HOXB13, Homo sapiens, UniProt Q92826, residues 1-284)
UniProt Q92826, sequence (whole entry, looked up): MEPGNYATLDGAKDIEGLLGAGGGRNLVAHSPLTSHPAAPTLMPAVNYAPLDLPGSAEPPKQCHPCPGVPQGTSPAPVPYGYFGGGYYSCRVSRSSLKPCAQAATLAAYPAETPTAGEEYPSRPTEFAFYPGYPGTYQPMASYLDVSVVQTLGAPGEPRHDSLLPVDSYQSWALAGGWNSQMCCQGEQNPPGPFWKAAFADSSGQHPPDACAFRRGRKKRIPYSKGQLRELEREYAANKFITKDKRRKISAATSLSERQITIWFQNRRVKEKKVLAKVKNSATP
Technique: protein-binding microarray
Molecule type: hairpin DNA
Medium: in vitro
Concentration: not given
Setting: whole hairpin DNA, median over replicate spots
Baseline: not given
Reading: higher = stronger binding
Shared flanks, not repeated: GAGGCCG … CGGCCTCACACTC
Oligonucleotide | median fluorescence [a.u.]
CTTTACGAGGGCCTCCTGGCCCTCGTAAAG (5mC at 8) | 4950
TTTTATTGGCGCCTCCTGGCGCCAATAAAA (5mC at 17) | 5280
TTTTCGTGGGGCCTCCTGGCCCCACGAAAA (5mC at 12) | 4130
TTCGATTGGGGCCTCCTGGCCCCAATCGAA | 3950
TTTTATGGGGGCCTCCTGGCCCCCATAAAA (5mC at 31) | 6280
TTATACGAGGGCCTCCTGGCCCTCGTATAA | 4360
TTCTATTGGGGCCTCCTGGCCCCAATAGAA | 4140
TTTTACGAGGGCCTCCTGGCCCTCGTAAAA | 5440
TTTTCCGAGGGCCTCCTGGCCCTCGGAAAA (5mC at 12) | 3820

For quick reference, copied from above (sample 2):
Change | relative binding score [%]
L138C | 95.5
T86G | 94.6
E147N | 91.5
T17W | 77.9
D159M | 71.6
